Published values of several laboratories.
Values joined by “and” are separate records of one study, mostly repeats; a detail may differ. ± gives the spread as reported. In brackets after ≈: the same amount, converted by molar mass.
Sequence of UniProt Q92995 (whole entry, looked up): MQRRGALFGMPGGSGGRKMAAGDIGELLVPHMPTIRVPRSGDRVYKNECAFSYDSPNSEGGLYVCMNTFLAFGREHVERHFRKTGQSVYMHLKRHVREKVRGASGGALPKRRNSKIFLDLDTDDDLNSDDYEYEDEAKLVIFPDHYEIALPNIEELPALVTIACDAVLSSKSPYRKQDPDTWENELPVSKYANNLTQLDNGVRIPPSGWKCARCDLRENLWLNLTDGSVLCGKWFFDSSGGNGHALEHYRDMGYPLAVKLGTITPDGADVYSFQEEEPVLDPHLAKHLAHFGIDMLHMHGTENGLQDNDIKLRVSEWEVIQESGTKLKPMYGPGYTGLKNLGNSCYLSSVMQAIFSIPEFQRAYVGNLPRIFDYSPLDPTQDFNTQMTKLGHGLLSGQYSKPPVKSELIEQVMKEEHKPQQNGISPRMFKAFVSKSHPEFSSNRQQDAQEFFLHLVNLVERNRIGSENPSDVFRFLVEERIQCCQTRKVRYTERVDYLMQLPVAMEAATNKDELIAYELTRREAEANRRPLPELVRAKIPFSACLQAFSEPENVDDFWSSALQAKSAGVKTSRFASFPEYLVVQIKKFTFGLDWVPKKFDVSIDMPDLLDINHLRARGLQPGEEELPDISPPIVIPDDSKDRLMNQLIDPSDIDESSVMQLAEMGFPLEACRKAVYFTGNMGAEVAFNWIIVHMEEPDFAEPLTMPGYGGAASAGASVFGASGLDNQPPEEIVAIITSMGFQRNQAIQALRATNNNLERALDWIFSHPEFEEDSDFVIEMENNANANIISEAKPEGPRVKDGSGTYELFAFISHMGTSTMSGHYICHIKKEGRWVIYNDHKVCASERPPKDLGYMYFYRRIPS
Sequence of UniProt Q9UBN7 (whole entry, looked up): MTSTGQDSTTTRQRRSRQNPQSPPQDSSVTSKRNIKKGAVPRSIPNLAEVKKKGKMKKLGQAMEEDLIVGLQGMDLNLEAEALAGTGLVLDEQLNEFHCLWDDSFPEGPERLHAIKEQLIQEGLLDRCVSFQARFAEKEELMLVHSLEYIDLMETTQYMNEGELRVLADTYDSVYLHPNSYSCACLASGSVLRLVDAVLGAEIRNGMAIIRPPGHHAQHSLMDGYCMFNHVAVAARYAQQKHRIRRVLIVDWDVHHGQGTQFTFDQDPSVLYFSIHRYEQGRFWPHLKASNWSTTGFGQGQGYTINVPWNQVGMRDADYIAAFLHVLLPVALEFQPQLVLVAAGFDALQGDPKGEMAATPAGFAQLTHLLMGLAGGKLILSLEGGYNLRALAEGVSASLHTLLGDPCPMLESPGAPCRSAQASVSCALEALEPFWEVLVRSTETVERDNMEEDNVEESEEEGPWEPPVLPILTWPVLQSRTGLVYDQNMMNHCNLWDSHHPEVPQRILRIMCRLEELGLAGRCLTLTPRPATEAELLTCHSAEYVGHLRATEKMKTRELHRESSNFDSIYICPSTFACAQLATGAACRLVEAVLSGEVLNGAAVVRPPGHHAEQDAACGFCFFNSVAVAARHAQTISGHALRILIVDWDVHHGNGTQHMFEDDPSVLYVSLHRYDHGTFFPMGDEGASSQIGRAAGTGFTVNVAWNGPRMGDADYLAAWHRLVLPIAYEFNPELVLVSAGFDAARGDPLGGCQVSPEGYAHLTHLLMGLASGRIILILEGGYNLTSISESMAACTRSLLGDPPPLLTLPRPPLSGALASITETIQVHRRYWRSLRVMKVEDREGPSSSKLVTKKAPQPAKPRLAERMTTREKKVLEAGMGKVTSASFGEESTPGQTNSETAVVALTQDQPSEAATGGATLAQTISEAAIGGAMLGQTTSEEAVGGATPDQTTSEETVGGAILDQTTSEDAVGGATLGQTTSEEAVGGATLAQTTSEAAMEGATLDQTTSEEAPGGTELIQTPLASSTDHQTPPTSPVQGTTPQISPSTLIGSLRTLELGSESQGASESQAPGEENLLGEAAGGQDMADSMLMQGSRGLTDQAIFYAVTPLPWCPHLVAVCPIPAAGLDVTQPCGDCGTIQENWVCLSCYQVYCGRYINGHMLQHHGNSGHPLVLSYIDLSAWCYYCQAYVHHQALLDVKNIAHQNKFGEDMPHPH

| Compound | tested on | assay | test system | setting | scale | endpoint | value |
| --- | --- | --- | --- | --- | --- | --- | --- |
| CC[C@H]1OC(=O)[C@H](C)[C@@H](O[C@H]2C[C@@](C)(OC)[C@@H](O)[C@H](C)O2)[C@H](C)[C@@H](O[C@@H]2O[C@H](C)C[C@H](N(C)C)[C@H]2O)[C@](C)(O)C[C@@H](C)CN(C)[C@H](C)[C@@H](O)[C@]1(C)O | Neisseria gonorrhoeae | broth microdilution | WHO P | 1.5 h |  | MIC | 1 µg/mL (≈ 1.34 µM) |
| CC1=NN(c2cccc(C)c2)C(=O)C1=NNc1ccc(S(N)(=O)=O)cc1 | Saccharomyces cerevisiae |  |  | 10 µg/mL |  | glucose uptake | 36.679 ± 0.0011% |
| Cc1cc(Nc2ccc(S(F)(F)(F)(F)F)cc2)n2nc(C(C)(F)F)nc2n1 | Plasmodium falciparum | microscopy | human malaria patients | 400 mg, median |  | lag phase (Tlag) | 4.01 h |
| CN[C@H](CC(C)C)C(=O)N[C@H]1C(=O)N[C@@H](CC(N)=O)C(=O)N[C@H]2C(=O)N[C@H]3C(=O)N[C@H](C(=O)N[C@H](C(=O)O)c4cc(O)cc(O)c4-c4cc3ccc4O)[C@H](O)c3ccc(c(Cl)c3)Oc3cc2cc(c3O[C@@H]2O[C@H](CO)[C@@H](O)[C@H](O)[C@H]2O[C@H]2C[C@](C)(N)[C@H](O)[C@H](C)O2)Oc2ccc(cc2Cl)[C@H]1O | Streptococcus pyogenes |  | 10 isolates | serum 0% |  | MIC50 | 0.5 µg/mL (≈ 0.345 µM) |
| CC1(C)S[C@@H]2[C@H](NC(=O)Cc3ccccc3)C(=O)N2[C@H]1C(=O)O | Neisseria gonorrhoeae | broth microdilution | WHO O | 1.5 h |  | MIC | 64 µg/mL (≈ 191 µM) |
| Cn1cc(-c2ccc(-c3cncc(Cl)c3N3CCC4(CCNC4=O)CC3)cc2)cn1 | COLO 205 | gene expression, microarray, item: TUBB3 mRNA |  | concentration not given, 6 h | baseline: untreated cells | log2 fold change | 2.28 |
| O=C(O)Cn1cc2ccccc2n1 | Protein deacetylase HDAC6, ZnF-UBD domain (HDAC6, Homo sapiens, UniProt Q9UBN7) |  |  |  |  | Kd | > 1000 µM |
| CC1=NNC(=O)C1=NNc1ccc(S(N)(=O)=O)cc1 | Saccharomyces cerevisiae |  |  | 10 µg/mL |  | glucose uptake | 27.92 ± 0.00138% |
| O=C(O)CCC(=O)Nc1ccccc1 | Ubiquitin carboxyl-terminal hydrolase 13, ZnF-UBD domain (USP13, Homo sapiens, UniProt Q92995) |  |  |  |  | Kd | 872 µM |
| CC1=NN(c2ccccc2)C(=O)C1=NNc1ccc(S(N)(=O)=O)cc1 | Saccharomyces cerevisiae |  |  | 50 µg/mL |  | glucose uptake | 21.5% |
| CCc1c2c(nc3ccc(OC(=O)N4CCC(N5CCCCC5)CC4)cc13)-c1cc3c(c(=O)n1C2)COC(=O)[C@]3(O)CC | Taenia solium | trypan blue uptake | viable cysts in vitro | 50 µg/mL |  | cysticidal efficacy | 20% |
| CC(=O)N1CCC(C(=O)N2CCN3C(=O)c4cc(-c5ccccc5)ccc4NC(=O)C3C2)CC1 (stereo not shown) | Caenorhabditis elegans |  | N2 | 25 µM |  | median lifespan | 19 days |
| CC(C)n1ncc2c(C(=O)NCC3(C)CNC3)cc(C3CC3)nc21 | Enterovirus D68 | viral replication | RD, recombinant wild-type US/MO/14-18947 | 0.1 µM | baseline: untreated | plaque area | 90.6% and 88.8% |
| N=C(N)c1ccc(OCc2ccc(-c3ccccc3)cc2COc2ccc(C(=N)N)cc2)cc1 | Escherichia coli | checkerboard | ATCC 25922 | unit not given, added: rifampicin | lower = stronger synergy | FICI | 0.031 |
| CC(=O)NC[C@H]1CN(c2ccc(N3CCOCC3)c(F)c2)C(=O)O1 | Streptococcus pyogenes |  | 10 isolates | pH 7.0 |  | MIC50 | 1 µg/mL (≈ 2.96 µM) |
| CC1=NCCNC(=O)C1=NNc1ccc(S(N)(=O)=O)cc1 | Saccharomyces cerevisiae |  |  | 50 µg/mL |  | glucose uptake | 27% |
| CC1(CNc2nc(-c3cccs3)nc(Cl)c2-c2c(F)cc(N)cc2F)COC1 | Schistosoma haematobium |  | adult | 1.2 µM, after washout | baseline: control | motility | ~10% |
| CC1=NN(c2ccc(C)cc2)C(=O)C1=NNc1ccc(S(N)(=O)=O)cc1 | Saccharomyces cerevisiae |  |  | 200 µg/mL |  | glucose uptake | 63.7% |
| CC1(C)S[C@@H]2[C@H](NC(=O)[C@H](N)c3ccccc3)C(=O)N2[C@H]1C(=O)O | Pseudomonas aeruginosa |  | clinical isolate RKI-No_579/15 |  |  | MIC | > 16 µg/mL |

A few entries again:
| Compound | tested on | assay | test system | setting | scale | endpoint | value |
| --- | --- | --- | --- | --- | --- | --- | --- |
| O=C(O)CCC(=O)Nc1ccccc1 | Ubiquitin carboxyl-terminal hydrolase 13, ZnF-UBD domain (USP13, Homo sapiens, UniProt Q92995) |  |  |  |  | Kd | 872 µM |
| CC1=NN(c2ccccc2)C(=O)C1=NNc1ccc(S(N)(=O)=O)cc1 | Saccharomyces cerevisiae |  |  | 50 µg/mL |  | glucose uptake | 21.5% |
